Experimental data from different studies.
Compare with care: the assays were run in different laboratories. ± gives the spread as reported. ≈ marks a conversion by molar mass, not a printed value.

SMILES = CCCCC/C=C/C=C/C(=O)NCC(C)C; system = rat plasma; conditions = 4000 ng/mL, 30 d, -80 °C, long-term storage high QC; scale = reference: nominal concentration; quantity = relative error; result = 7.5%
SMILES = CC(C)=CCC[C@](C)(O)[C@H]1CC[C@]2(C)[C@@H]1[C@H](O)C[C@@H]1[C@@]3(C)CC[C@H](O)C(C)(C)[C@@H]3CC[C@]12C; system = Labrafac CC; conditions = 72 h, 25 °C; quantity = solubility; result = 3800 ± 820 µg/mL (≈ 8.25 mM)
SMILES = C#CCNC(=O)C(CC(C)(C)F)NC(c1ccc(-c2ccc(S(C)(=O)=O)cc2)cc1)C(F)(F)F (stereo not shown); test = LC-MS UV trace; system = aqueous buffer; conditions = concentration not given, 23 h, pH 7.5, 37 °C, with: cysteine 10 mM; quantity = cysteine adduct formation; result = 0%
SMILES = COc1ccc2cc(-c3ccc(-c4ccc(C)cn4)nc3)oc2c1; system = acetonitrile; conditions = zinc(II) complex; quantity = fluorescence lifetime; result = 3.33 ns
SMILES = Nc1nc(-n2nnc3c2CCC2C(CO)C2CC3)nc2c1ncn2C1OC(CO)C(O)C1O (mixture of isomers); test = frequency-domain fluorometry; system = methanol; quantity = average fluorescence lifetime; result = 0.8 ns
SMILES = CC(C)C[C@H](NC(=O)C[C@H](O)[C@H](CC(C)C)NC(=O)[C@H](Cc1c[nH]cn1)NC(=O)CNC(=O)[C@@H](NC(=O)[C@H](C)NC(=O)[C@H](Cc1c[nH]c2ccccc12)NC(=O)[C@H](CCC(N)=O)NC(=O)[C@@H](Cc1ccccc1)NC(=O)CCNC(=O)CCNC(=O)CN1CCN(CC(=O)O)CCN(CC(=O)O)CCN(CC(=O)O)CC1)C(C)C)C(N)=O [lutetium-177 labelled]; system = mouse, PC-3 xenograft; conditions = intravenous, 200 pmol, 1 h; quantity = tumour uptake; result = 9 ± 3.9 %ID/g
SMILES = CCCC[C@H](NC(=O)CNC(=O)CNC(=O)CN1CCN(CC(=O)O)CCN(CC(=O)O)CC1)C(=O)N[C@H]1CC(=O)NCCCC[C@@H](C(N)=O)NC(=O)[C@H](Cc2c[nH]c3ccccc23)NC(=O)[C@H](CCCNC(=N)N)NC(=O)[C@@H](Cc2ccccc2)NC(=O)[C@H](Cc2c[nH]cn2)NC1=O [copper-64 labelled]; system = female C57 mouse, B16/F1 melanoma; conditions = intravenous, 0.037 MBq, 4 h; scale = reference: tumour over muscle; quantity = uptake ratio; result = 35.3
SMILES = CC(C)c1cnc(-c2cc(Cl)ccc2F)cc1Nc1ccncc1C(=O)NC(CO)CO; system = patients, phase I monotherapy; conditions = oral, dose not given, grade 2; quantity = patients with ALT increase; result = 4.8%
SMILES = CN1CC[C@H](c2c(O)cc(O)c3c(=O)cc(/C=C/c4c(Cl)cccc4Cl)oc23)[C@H](O)C1.O=C(O)CNC(=O)c1ccccc1; test = dissolution, USP paddle apparatus; system = water, 0.25% SLS; conditions = 120 min, 37 °C, sink conditions; quantity = dissolved fraction; result = 12%
SMILES = CN1C(=O)[C@@H](Cc2ccc(O)cc2)NC(=O)CNC(=O)[C@H](Cc2ccc3ccccc3c2)NC(=O)[C@H](CCCNC(=N)N)NC(=O)[C@H]1CCCNC(=O)c1ccc(CNC(=O)CN2CCN(CC(=O)O)CCN(CC(=O)O)CCN(CC(=O)O)CC2)cc1 [gallium-68 labelled]; test = OLINDA/EXM; system = human patients; conditions = 185 MBq; quantity = total effective dose; result = 2.89 mSv
SMILES = C[C@H]1C[C@@H](Oc2cccc(F)n2)CCN1Cc1cnc(N[11C](C)=O)s1; system = rhesus monkey, plasma; conditions = dose not given, 30 min, baseline; quantity = unchanged parent; result = ~60%
SMILES = CN1CCC[C@]1(C)/C=C/S(=O)(=O)NC(=O)Nc1c2c(cc3c1CCC3)CCC2; system = human, plasma; conditions = oral, 100 mg, single dose, healthy volunteers; quantity = AUC(0-inf); result = 92800 ng·h/mL
SMILES = CC(C)[C@H](NC(=O)CNC(=O)[C@H](CCC(N)=O)NC(=O)[C@H](C)N)C(=O)O; test = LC-MS/MS; system = human, plasma; conditions = intravenous, 10 mg/kg three times daily, day 2, first dose, 10 min infusion, geometric mean; quantity = AUC(0-inf); result = 242 ng·h/mL
SMILES = C1=CCCC=CCC1.F[P-](F)(F)(F)(F)F.[Pt+][c]1ccccc1P(=Nc1ccccc1)(c1ccccc1)c1ccccc1; test = NMR; system = DMSO-d6; conditions = 1 week; quantity = free COD released; result = ~6%
SMILES = Cc1ccc(OCC(=O)N(Cc2cccs2)c2ccn[nH]2)cc1; system = female Sprague-Dawley rat, plasma; conditions = oral, 10 mg/kg, single dose; quantity = bioavailability; result = 0.26%
SMILES = C[C@H]1Nc2nc(=O)c3[nH]ccc3n2Cc2ccc(Cl)cc21; system = female rats, plasma; conditions = 125 mg/kg, human dose 10 mg; scale = reference: rat over human; quantity = exposure ratio; result = not detected
SMILES = CC/C=C\C/C=C\C/C=C\C/C=C\C/C=C\CCCCOC(CC)C(=O)O (stereo not shown); test = radioactivity, 14C-labelled; system = Wistar rat, male, subcutaneous fat; conditions = oral, 100 mg/kg, 1 day; quantity = tissue concentration; result = 7.1 µg equivalents/g tissue
SMILES = C#CCOc1ccc(/C=C2\SC(=O)N(CC(=O)NCc3ccccc3)C2=O)cc1; test = inverse Kirkwood-Buff integrals; system = binary solvent mixture; conditions = 298.15 K, mole fraction x1 0.60; quantity = Kirkwood-Buff integral G2,3; result = -365 cm³/mol
SMILES = Cn1c(=O)oc2ccc(-c3ccc(CC(C#N)NC(=O)C4CNCCCO4)c(F)c3)cc21 (stereo not shown); test = item: alanine aminotransferase increased; system = human; conditions = 15 mg single dose, fasted; quantity = subjects with TEAE; result = 0%
SMILES = COc1ccc([C@@H]2CC(=O)c3c(O)cc(O[C@@H]4O[C@H](CO[C@@H]5O[C@@H](C)[C@H](O)[C@@H](O)[C@H]5O)[C@@H](O)[C@H](O)[C@H]4O)cc3O2)cc1O; system = rat plasma; conditions = 0.48 ng/mL, three freeze-thaw cycles; scale = reference: nominal concentration; quantity = relative error; result = -7.42%
SMILES = COc1cccc(C=NCCCN(C)CCN(C)CCCN=Cc2cccc(OC)c2[O-])c1[O-].[67Ga+3]; system = male rat, heart; conditions = iv, 120 min; quantity = uptake; result = 2 %ID/organ
SMILES = COC(=O)c1ccc(-c2cn(Cc3cc(Cl)ccc3O[11CH3])nn2)cc1; system = C57BL/6 mouse, blood; conditions = dose not given, 60 min; quantity = radioactivity; result = 2.07 %ID/cc
SMILES = CC(C)[C@H](NC(=O)[C@@H]1CCCN1C(=O)[C@H](CCCNC(=N)N)NC(=O)[C@H](CS)NC(=O)[C@H](Cc1c[nH]c2ccccc12)NC(=O)[C@H](CCCNC(=N)N)NC(=O)[C@@H](Cc1ccccc1)NC(=O)[C@H](Cc1c[nH]cn1)NC(=O)[C@H](CCC(=O)O)NC(=O)[C@H](CS)NC(=O)[C@H](CS)NC(=O)CNC(=O)[C@@H]1CC(=O)N[C@@H](CCCNC(=N)N)C(=O)NCC(=O)N[C@@H](CC(=O)O)C(=O)N[C@H](Cc2ccc(O)cc2)C(=O)N1)C(N)=O [technetium-99m labelled]; system = C57 mice B16/F1 melanoma female, urine; conditions = iv, 0.037 MBq, 24 h; quantity = excretion; result = 92.7 ± 1.99%
SMILES = CC(C)(O)c1ncc([S@](N)(=O)=NC(=O)Nc2c3c(cc4c2CCC4)CCC3)s1; system = human, plasma; conditions = oral, 3 mg, single dose, fasted, healthy volunteers; quantity = half-life; result = 8.62 h
SMILES = [11CH3]N1CCN(CCCOc2ccc(=O)n(-c3ccc(Cl)c(Cl)c3)n2)CC1; test = radiotracer; system = mouse BALB/c male, brain, heart, lung, kidney; conditions = intravenous; quantity = Tmax; result = 5 min
SMILES = CC[C@H](C)[C@H](NC(=O)[C@@H]1CCCN1C(=O)CNC(=O)[C@H](Cc1ccccc1)NC(=O)[C@H](CC(N)=O)NC(=O)[C@H](CC(N)=O)NC(=O)[C@H](CO)NC(=O)[C@H](CO)NC(=O)[C@H](Cc1c[nH]cn1)NC(=O)[C@@H](NC(=O)[C@H](CC(C)C)NC(=O)[C@H](Cc1ccccc1)NC(=O)[C@H](CC(N)=O)NC(=O)[C@H](C)NC(=O)[C@H](CC(C)C)NC(=O)[C@H](CCCNC(=N)N)NC(=O)[C@H](CCC(N)=O)NC(=O)[C@@H](NC(=O)[C@H](C)NC(=O)[C@@H]1CSSC[C@H](NC(=O)[C@@H](N)CCCCN)C(=O)N[C@@H](CC(N)=O)C(=O)N[C@@H]([C@@H](C)O)C(=O)N[C@@H](C)C(=O)N[C@@H]([C@@H](C)O)C(=O)N1)[C@@H](C)O)C(C)C)C(=O)N[C@@H](CC(C)C)C(=O)N[C@@H](CO)C(=O)N1CCC[C@H]1C(=O)N[C@H](C(=O)N[C@@H](CC(N)=O)C(=O)N[C@H](C(=O)NCC(=O)N[C@@H](CO)C(=O)N[C@@H](CC(N)=O)C(=O)N[C@H](C(=O)N[C@@H](Cc1ccc(O)cc1)C(N)=O)[C@@H](C)O)C(C)C)[C@@H](C)O; test = ion mobility mass spectrometry; system = nitrogen drift gas; conditions = monomer charge +4, compact conformer; quantity = collision cross section; result = 545 ± 14.4 Å²
SMILES = CC1(c2ccc([C@H]3C[C@@]4(C)[C@@H](CC[C@@]4(O)C(F)(F)C(F)(F)F)[C@@H]4CCC5=CC(=O)CCC5=C43)cc2)COC1; system = rat liver microsomes; conditions = 100 % absorption assumed; quantity = maximal oral bioavailability; result = 47%
SMILES = CNC(=O)N[C@]1(C)CCC[C@@]2(C)C3CC[C@@]4(C)C[C@]3(CCC21)CC4=O (single isomer, unassigned); system = processed rat plasma; conditions = 400 ng/mL, 24 h, room temperature, autosampler stability; scale = reference: nominal concentration; quantity = relative error; result = 11.4%
